Measurements from different studies.
Each line is one published result; not all experiments were run side by side. ± marks the error that the study gave. Values after ≈ are worked out from the molar mass of the structure shown.
Melanocortin receptor 5: Melanocortin receptor 5 (Mus musculus, UniProt P41149)
Chain of UniProt P41149 (whole entry, looked up): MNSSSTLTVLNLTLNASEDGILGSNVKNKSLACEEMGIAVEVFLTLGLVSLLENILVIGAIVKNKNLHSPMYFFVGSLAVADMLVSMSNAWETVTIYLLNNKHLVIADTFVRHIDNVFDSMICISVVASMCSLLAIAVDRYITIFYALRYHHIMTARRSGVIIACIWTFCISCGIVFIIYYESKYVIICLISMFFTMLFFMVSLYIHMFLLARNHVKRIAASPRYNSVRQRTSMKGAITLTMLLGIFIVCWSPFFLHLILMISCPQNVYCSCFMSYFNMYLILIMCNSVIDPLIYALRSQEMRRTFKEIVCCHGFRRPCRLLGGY

| SMILES | target or system | assay | system | setting | scale | quantity | result |
| --- | --- | --- | --- | --- | --- | --- | --- |
| CC1(C)Oc2cc3oc(=O)ccc3cc2C[C@@H]1O |  |  | CD-1 mouse, male, liver | oral gavage, 80 mg/kg daily, 4 weeks |  | organ weight | 1.62 ± 0.14 g |
| COc1c(N2CCNC(C)C2)c(F)cc2c(=O)c(C(=O)NCCCN(C)C)cn(C3CC3)c12 (racemic) |  | item: GFX formed plus unchanged prodrug | pigmented rabbits, vitreous humor | topical eye drop, 30 µL of 35 mg/mL, 1 h | baseline: prodrug over GFX 5 mg/mL | tissue level ratio | 3.6 fold |
| CCCC(C)N1CCC(N(Cc2ccccc2)C(=O)Nc2cccc(C(F)(F)F)c2)CC1 (stereo not drawn) |  |  | CD-1 female mouse, liver microsomes | 0.8 µM |  | intrinsic clearance | 170 mL/min/kg |
| CC(=O)c1c(C)c2cnc(Nc3ccc(N4CCS(=N)(=O)CC4)cn3)nc2n(C2CCCC2)c1=O |  | shake flask | water | pH 6.5 |  | thermodynamic solubility | 30 µg/mL (≈ 60.5 µM) |
| Cc1cc(NC(=O)c2cc(C(F)(F)F)cc(C(F)(F)F)c2)ccc1NS(=O)(=O)C(F)(F)F |  | slow-stir method | 1-octanol/water | 48 h, room temperature |  | log P | 2.9 ± 0.199 |
| CSCC[C@H](NC(=O)[C@H](CO)NC(=O)[C@H](Cc1ccc(O)cc1)NC(=O)[C@H](CO)NC(C)=O)C(=O)N[C@@H](CCC(=O)O)C(=O)N[C@@H](Cc1c[nH]cn1)C(=O)N[C@@H](Cc1ccccc1)C(=O)N[C@@H](C)C(=O)N[C@@H](Cc1c[nH]c2ccccc12)C(=O)NCC(=O)N[C@@H](CCCCN)C(=O)N1CCC[C@H]1C(=O)N[C@H](C(N)=O)C(C)C | Melanocortin receptor 5 |  |  |  |  | EC50 | 0.09 ± 0.02 µM |
| CCCC[C@@H]1NC(=O)[C@@H](NC(=O)[C@H](CCC(=O)O)NC(=O)CNC(=O)CN2CCN(CC(=O)O)CCN(CC(=O)O)CCN(CC(=O)O)CC2)CCCCNC(=O)C[C@@H](C(N)=O)NC(=O)[C@H](C(C)C)NC(=O)[C@@H]2CCCN2C(=O)[C@H](CCCNC(=N)N)NC(=O)CNC(=O)[C@H](Cc2c[nH]c3ccccc23)NC(=O)[C@H](CCCNC(=N)N)NC(=O)[C@@H](Cc2ccccc2)NC(=O)[C@H](Cc2c[nH]cn2)NC(=O)[C@H](CCC(=O)O)NC1=O [indium-111 labelled] |  |  | normal C57 mice, brain | intravenous, 0.037 MBq, 24 h |  | tissue uptake | 0.01 ± 0.01 %ID/g |
| Cc1cccc(Nc2ccccc2C(=O)O)c1C |  | shake-flask | soybean oil | 37 °C |  | thermodynamic solubility | 1.87 ± 0.12 mg/g |
| Sc1nc2ccccc2s1 | cysteine peptide Ac-RFAACAA-COOH | peptide depletion, DPRA RapidFire-MS/MS |  | 24 h, pH 7.5, room temperature, with: 5.0 µM cysteine peptide |  | IC50 | 131 µM |
| COc1c(N2C[C@@H]3CCCN[C@@H]3C2)c(F)cc2c(=O)c(C(=O)O)cn(C3CC3)c12 |  |  | male Hartley guinea pig, anaesthetized | intravenous infusion, 10 mg/kg, 10 min infusion | baseline: baseline | QTc change | 18.3 ± 4.4% |
| CCc1cc2c(cc1N1CCC(N3CCOCC3)CC1)C(C)(C)c1[nH]c3cc(C#N)ccc3c1C2=O |  |  | severe hepatic impairment patients, plasma, total | oral, 300 mg single dose, fed |  | Vz/F | 5330 L |
| Nc1nc(NC2CC2)c2ncn([C@H]3C=C[C@@H](CO)C3)c2n1 |  | equilibrium dialysis | cellulose membrane, cell-free | pH 7.4, no Pluronic P85 |  | effective permeability | 125 ± 23 ×10⁻⁶ cm/s |
| Nc1ncnc2c1ncn2[C@@H]1O[C@H](COP(=O)(O)OP(=O)(O)O)[C@@H](O)[C@H]1O | ATP1A1 (Sus scrofa, UniProt P05024) | binding, radioligand equilibrium binding | membranes | pH 7.7, 0 °C, with: NO3- 109 mM |  | Kd | 3.23 ± 0.05 µM |
| [2H]C([2H])([2H])Oc1cc2c(cc1OC([2H])([2H])[2H])C1CC(=O)C(CC(C)C)CN1CC2 (stereo not drawn) |  | item: deuterated α-HTBZ | healthy human volunteers, plasma | oral, 6 mg single dose, standard meal |  | dose-normalized Cmax | 1.6 ng/mL |
| N[C@@H](CC(=O)N1CCn2c(nnc2C(F)(F)F)C1)Cc1cc(F)c(F)cc1F |  |  | healthy Korean subjects, plasma | oral, 100 mg single dose, ABCB1 G2677T/A TT |  | AUC(0-2 h) | 507 ± 263 ng·h/mL |
| COc1ccc2c(c1OC)C(=O)O[C@@H]2[C@H]1c2c(cc3c(c2OC)OCO3)CCN1C |  | shake-flask | PEG400 | 37 °C |  | thermodynamic solubility | 19.4 ± 0.94 mg/g |
| CSCC[C@H](NC(=O)[C@H](CO)NC(=O)[C@H](Cc1ccc(O)cc1)NC(=O)[C@H](CO)NC(C)=O)C(=O)N[C@@H](CCC(=O)O)C(=O)N[C@@H](Cc1c[nH]cn1)C(=O)N[C@@H](Cc1ccccc1)C(=O)N[C@@H](CCCNC(=N)N)C(=O)N[C@@H](Cc1c[nH]c2ccccc12)C(=O)N[C@@H](C)C(=O)N[C@@H](CCCCN)C(=O)N1CCC[C@H]1C(=O)N[C@H](C(N)=O)C(C)C | Melanocortin receptor 5 |  |  |  |  | EC50 | 0.041 ± 0.017 µM |
| CCC(C)n1ncn(-c2ccc(N3CCN(c4ccc(OCC5COC(Cn6cncn6)(c6ccc(Cl)cc6Cl)O5)cc4)CC3)cc2)c1=O (stereo not drawn) |  | shake-flask | polysorbate 80 | 37 °C |  | thermodynamic solubility | 1.42 ± 0.19 mg/g |
| CC(=O)C(C)=O | cysteine peptide Ac-RFAACAA-COOH | DPRA RapidFire-MS/MS |  | 24 h, pH 7.5, with: 5.0 µM cysteine peptide |  | maximal peptide depletion | -95.5% |
| O=C(Nc1ccc2sc(-c3ccc(F)c(F)c3)nc2c1)N1C[C@@H](F)[C@H](F)C1 |  |  | mice, brain | intraperitoneal, 5 mg/kg, 1 h |  | brain concentration | > 16 µM |
| Cc1cc(Nc2ncc(Cl)c(Nc3ccccc3S(=O)(=O)C(C)C)n2)c(OC(C)C)cc1C1CCNCC1 |  | item: total drug | patients, plasma | oral, 750 or 450 mg/day, geometric mean |  | AUC(tau) at steady state | 22.8 µM·h |
| Cc1cc(-c2cc(OC(=O)c3ccccc3)ccc2Cl)cc2nnc(Nc3ccc(OCCN4CCCC4)cc3)nc12 |  |  | Dutch Belted rabbit, conjunctiva | topical ocular, 40 µL drop of 0.6%, 2 h |  | tissue concentration | 609 nM |
| CCCOc1ccc([C@H]2CNC(=O)N2c2ccc3[nH]cnc3c2)cc1 |  |  | human, plasma | oral, 100 mg, single dose, fasted |  | AUC(0-inf) | 692 ng·h/mL |
| Nc1nc2c(ncn2[C@@H]2O[C@H](COP(=O)(O)O[P@](O)(=S)OP(=O)(O)O)[C@@H](O)[C@H]2O)c(=O)[nH]1 (single isomer, unassigned) | Saccharomyces cerevisiae | vacuole fusion, inhibitor, in vitro vacuole fusion |  | 0.5 mM, 120 min, 25 °C |  | inhibition | 23% |
